Published values collected from several papers.
Each numbered part is a random draw from the data of one study; scales do not carry over between parts.

Sample 1 — technique: protein binding microarray; form: double-stranded DNA, one strand shown; medium: in vitro; tested at: not given; baseline: not given; reading: higher = stronger binding; measurement: E-score
Target: Histone acetyltransferase KAT6A, winged helix 1, GST fusion (KAT6A, Homo sapiens, UniProt Q92794, residues 1-85)
Setting: 8-mer, flanks averaged, mean of 2 arrays, mostly near background
Target sequence (chain): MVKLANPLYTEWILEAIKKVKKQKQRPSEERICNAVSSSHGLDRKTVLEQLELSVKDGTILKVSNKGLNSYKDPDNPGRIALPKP
GGGGGCGA: 0.0969
TGGAACAA: -0.223
AGGAATAG: -0.104
CCCAGCAA: -0.0577
AGACTTTC: -0.165
TACGGAGA: 0.0354
ATAACACC: -0.0534
ATCTCAAG: -0.27
AGACAAGC: -0.0255
AAGGAGAT: -0.116
GAATCCCC: 0.0198
GTGTAGCA: -0.0306
CAGTTTCC: -0.02
AGAATAGC: 0.0852
ATCGGCCA: 0.193
CTCGGAGA: 0.0629
TCTGGGCA: -0.228
CAGATTAA: -0.133

Sample 2 — technique: competition protein-binding microarray; form: double-stranded DNA, one strand shown; medium: in vitro; tested at: 2 µM; with: Pho4 competitor, 0.05 µM; reading: higher = stronger binding; measurement: fluorescence intensity; shared flanks, not repeated: … GTCTTGATTCGCTTGACGCTGCTG
Target: Centromere-binding protein 1, full length, His-tagged (CBF1, Saccharomyces cerevisiae, UniProt P17106, residues 1-351)
Sequence of UniProt P17106 (whole entry, looked up): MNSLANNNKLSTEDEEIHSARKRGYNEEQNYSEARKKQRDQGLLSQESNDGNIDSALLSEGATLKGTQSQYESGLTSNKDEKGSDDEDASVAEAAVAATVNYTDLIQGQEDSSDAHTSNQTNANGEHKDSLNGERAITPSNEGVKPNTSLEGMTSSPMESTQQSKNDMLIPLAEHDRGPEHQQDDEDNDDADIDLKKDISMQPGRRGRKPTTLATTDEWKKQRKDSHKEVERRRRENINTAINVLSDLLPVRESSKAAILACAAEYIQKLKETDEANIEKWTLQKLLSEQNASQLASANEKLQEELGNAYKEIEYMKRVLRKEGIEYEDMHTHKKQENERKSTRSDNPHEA
Setting: whole 60-bp probe, lowest competitor level
CTAACGAAGGTTTGCGCCGTGGGTGACAAGCCAAGT: 73.5 a.u.
GTCTTGTCTCATTTTCACGTGTGCTTCCCCACTTCA: 623 a.u.
GAATTTGAGGAGTTCCACGTGCCAGAAAGGATTATT: 1030 a.u.
CATACCCAACCTTGGAGTGTGGGTGAAGATATTTGT: 67.9 a.u.
GAAGTCCCTAGCTTCCACGGGATGTTTCAGCATTAA: 80.8 a.u.
TAACCCCCTCCTACCCACGCTATTCTTCAAATTCCG: 76 a.u.
AAGCTCGGCTAAGGCAACGTGCATCCCTCTAGAGAC: 123 a.u.
GGTTTTCGATTGGGCCTCGTGATGGAACACATCAGC: 300 a.u.
TCTTTACGGGCAGATGCTGTCTCCACTATTAACTTG: 71.6 a.u.
CTAACGAAGGTTTGTTCGGTGGGTGACAAGCCAAGT: 67.3 a.u.
AACTTGCAAGGCTGTCCCGTGTCCTTCCTAATGGGT: 139 a.u.
CTTCTGTAAATTTGTCACACTACTTGACGCGCCCCG: 132 a.u.
TATGATCCCTCCCATCACATGGACACTTTTAAGCAA: 338 a.u.
CTTTTCCTTGTTATCCTCGTGTGTTAAATAGATAAT: 125 a.u.
TGCGCAACAACTTGTCACTGCACTTTATGTCTAGAA: 71.3 a.u.

Sample 3 — technique: protein-binding microarray; form: double-stranded DNA, one strand shown; medium: in vitro; tested at: 2540 nM top; setting: 60-bp whole probe; with: salmon DNA 0.4 mg/ml; baseline: random background probes; reading: higher = stronger binding; measurement: fitted relative affinity; shared flanks, not repeated: GCCTAGCAC … GTCTTGATTCGCTTGACGCTGCTG
Target: Interferon regulatory factor 3, full length, phosphomimetic (IRF3, Homo sapiens, UniProt Q14653, residues 1-427, S386D/S396D/S398D/S402D/T404D/S405D)
Target sequence (chain): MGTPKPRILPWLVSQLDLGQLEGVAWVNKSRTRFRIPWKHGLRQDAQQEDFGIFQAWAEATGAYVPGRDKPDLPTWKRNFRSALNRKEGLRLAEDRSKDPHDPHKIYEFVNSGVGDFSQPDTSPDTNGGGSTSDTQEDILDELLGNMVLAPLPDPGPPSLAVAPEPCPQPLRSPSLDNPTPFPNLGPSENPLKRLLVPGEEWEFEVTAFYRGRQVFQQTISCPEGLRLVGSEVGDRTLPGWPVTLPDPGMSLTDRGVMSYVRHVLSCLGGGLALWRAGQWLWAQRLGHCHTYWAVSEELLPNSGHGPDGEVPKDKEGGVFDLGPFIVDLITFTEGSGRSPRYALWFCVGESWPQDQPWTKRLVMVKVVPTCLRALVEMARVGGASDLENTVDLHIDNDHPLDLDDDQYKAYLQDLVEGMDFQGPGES
TCATTTTTTTCTAACTAACTGTGCTAG: 1.32 z-score
TCATCACTTTCTTTAACACTGTGCTAG: 1.64 z-score
GACGGTATCGGACTCGGGACGTGCTAG: 2.8 z-score
GACGGACTGGGTACCGGGACGTGCTAG: -0.535 z-score
GACGAACTGAGTATGGAGACGTGCTAG: -0.0975 z-score
TTAAGACTGCTTTTCCTTTAGTGCTAG: 0.916 z-score
TTCAGTCCCCTCTTCTGGATGTGCTAG: 0.921 z-score
GGCGGTTTCGGTCTCGGGACGTGCTAG: 8.48 z-score
TACGGTCTCCTTATCCTGACGTGCTAG: 2.8 z-score
GACGGTATCGGGATTCGGGACGTGCTA: 1.81 z-score

Sample 4 — technique: RNA Bind-n-Seq; form: RNA; medium: in vitro; tested at: not given; setting: RNA with constant flanks, ends assumed; baseline: input RNA pool; reading: higher = stronger binding; measurement: bound/input enrichment
Target: RING finger protein unkempt homolog, zinc fingers 1-6, GST-SBP tag (UNK, Homo sapiens, UniProt Q9C0B0, residues 30-357)
Sequence of UniProt Q9C0B0 (30-357, looked up): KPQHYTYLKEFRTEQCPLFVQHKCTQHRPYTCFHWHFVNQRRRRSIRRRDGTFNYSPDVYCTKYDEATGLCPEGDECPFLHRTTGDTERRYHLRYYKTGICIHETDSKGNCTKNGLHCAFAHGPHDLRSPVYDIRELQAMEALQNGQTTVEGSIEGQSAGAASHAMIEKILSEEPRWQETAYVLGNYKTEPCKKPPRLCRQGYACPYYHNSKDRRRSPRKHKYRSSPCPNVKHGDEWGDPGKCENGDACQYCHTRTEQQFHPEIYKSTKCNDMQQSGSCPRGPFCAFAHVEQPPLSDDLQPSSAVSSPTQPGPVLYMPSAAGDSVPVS
Shared flanks, not repeated: GGGAGUUCUACAGUCCGACGAUC … CAACAGAGGAUUGAGCAUCA
GUGUCCUGCUUUCAACUUAAAUCACUGAGGCAUCUCUACUGUUCUGUGAGCAUCAGGACUGCCGCGCUGUGUCACCACAUGAGAGUUCAGAAGCAGCCUUUCUGUGGAGGGUGGGAAUGA: 0.166 ratio
AAAACUACUAUUUUUAGUAUACUUGUUUACGUAAAUGCUGAUUGGAAAUAUUUAAAUGACUACCGAUCUGAUUCUUUCUUUUCCUUUGGAAACUGGGAUUAAUGUAUGCUCUAGAUCCAU: 0.361 ratio
GAGUUUAGUUAACUUAUAGUCAGCACAUAGUAGUAAGUAUGUUUAUCCCUGUGUUCUCUAACCCGGAAGUCUGGCUUUAAAGGUUUUUUAAAGUUUCCUCUAAUAUUUUGAUCAAAGGUC: 2.9 ratio
GUUUUAUUACUUCUUGGAGAUGAAUCCAUGCAGAAGUUAUUUGAAGGAGGAAAAGGCCGUGUAUUUCAAAGGGUACUCUCUUGGAUCCCAUCAAAUAACCACCAGCUACAGCUUGCUGGA: 0.147 ratio
AAUUCAGGUAACUUCAAAAGUUCAUCAGAUAGAAACCCUCCACUCAGCCCUCAGUCCUCUACCGACCGUGAGUUAAGUGCUUCAGAAUUAGAUGAAGAUUCAAUUGGAUCCAACUAUAAG: 0.274 ratio
AUUUGGUCAAGGCCAGAAAGCACCCAGGUACAGAACAUCCUGCGCCAGAGAACAGAGAAUACCGAUAUUAAAAAGUAUUGUGUGCAGUACCUGGAGGAUGUAGGUUCUUUUGCAUACACU: 0.145 ratio
AUUGCAACAAAUGGAGAAAGUGCUGUAGUGCAAUUACCAAAAAAUGGCCCCAUUUAUGAUGCCGUUUGGAAUUCUAGUUCUACUGAGUUUUGUGCUGUAUAUGGUUUUAUGCCUGCCAAA: 0.132 ratio

Sample 5 — technique: aptamer microarray, sandwich; form: DNA with 2'F-ANA; medium: in vitro; tested at: 200 nM; with: Cy3 exosite-II aptamer, 400 nM; reading: higher = stronger binding; measurement: mean fluorescence intensity; strand: GGTTGGTGTGGTTGG
Target: Prothrombin, mature alpha-thrombin (F2, Homo sapiens, UniProt P00734)
Setting: whole 15-mer aptamer, many near background
2'F-ANA at 1 2 4 8 9 10 11 12 13 14: 54.6 a.u.
2'F-ANA at 2 3 5 6 7 8 10 11 12 14: 60.9 a.u.
2'F-ANA at 5 6 8 9 13 15: 61.9 a.u.
2'F-ANA at 1 2 4 5 6 7 8 11 12 13 15: 70.3 a.u.
2'F-ANA at 2 3 4 6 9 10 14: 173 a.u.
2'F-ANA at 1 5 6 7 9 10 12 13: 53.7 a.u.
2'F-ANA at 2 5 9 10 14: 43.8 a.u.
2'F-ANA at 1 2 3 5 6 9 11 12 13 14 15: 51.6 a.u.
2'F-ANA at 1 2 3 5 9 10 12: 53.3 a.u.
2'F-ANA at 5 6 9 10 11 13 14 15: 46.9 a.u.
2'F-ANA at 1 2 4 6 7 8 9 10 11 14: 106 a.u.
2'F-ANA at 1 4 5 7 8 10 11 12 14: 224 a.u.
2'F-ANA at 1 4 6 13: 72.6 a.u.
2'F-ANA at 5 8 11 12 13 14: 51.6 a.u.
2'F-ANA at 1 3 5 7 9 12 14: 45.9 a.u.
2'F-ANA at 1 2 3 5 6 7 8 10 12 14 15: 58.2 a.u.
2'F-ANA at 3 4 6 7 8 9 13 14 15: 212 a.u.
2'F-ANA at 3 4 5 7 9 10 11 15: 51.2 a.u.
2'F-ANA at 1 5 7 10 12 13 14 15: 45.9 a.u.
2'F-ANA at 1 7 9 11 12 13 14 15: 65.7 a.u.
2'F-ANA at 1 4 6 11 13 14: 48.5 a.u.

Sample 6 — technique: RNA Bind-n-Seq; form: RNA; medium: in vitro; tested at: 200 nM; setting: whole 134-nt RNA, ends assumed; with: 150 mM KCl; baseline: input library; reading: higher = stronger binding; measurement: log2 enrichment
Target: Fragile X messenger ribonucleoprotein 1, C-terminal low-complexity region (Fmr1, Mus musculus, UniProt P35922)
Shared flanks, not repeated: GGGAGUUCUACAGUCCGACGAUC … UGGAAUUCUCGGGUGUCAAGG
CCUGUGCUACACAUCGUAUGUACCGAAUCGGGGUUUUUUUGGGGUUUGGGGAAAAAGGGGAAAGUAUUAUGUUACGCCGUUCGGAUCUGC: 0.246
UGUAUCCCUGUUUCUUUUCUCCCUACAGAAACAUAUGAGGAUUUUGAUACCAGGAUACUUGAGGUAGGCAUGCAGAAUUAAAUACCUGGU: 0.26
UCCUGUGCUACACAUCGUAUGUACCGAAUCGGCCCCCCGGGGCCCCCCGGGCCCCCCGGGAAAGUAUUAUGUUACGCCGUUCGGAUCUGC: -0.677
UAACUUUAGAGGAGGAUCUGAUGGAUCUGGCAGUGGACGUGGAUUUGGGGAUGGCUAUAAUGGGUAUGGAGGAGGACCUGGAGGUGGCAA: 0.384
UGGCCCUGGUGGCAUGCGGGGAGGAAGAGGUGGCCUCAUGGAUCGUGGUGGUCCCGGUGGAAUGUUCAGUGGUGGCCGUGGUGGAGACAG: 0.153
UCAAGUCCUGUGCUACACAUCGUAUGUACCGAAUCGGGAAAGGGAAAGGAAAGGGAAAGUAUUAUGUUACGCCGUUCGGAUCUGCACUUC: -0.496
AGUCCUGUGCUACACAUCGUAUGUACCGAAUCGGGGAAAGGGGUGGGGAAAAAGGGGAAAGUAUUAUGUUACGCCGUUCGGAUCUGCACU: 0.595
GUCCUGUGCUACACAUCGUAUGUACCGAAUCGGAAAAAAAGGUUUUUGGAAAAAAAGGAAAGUAUUAUGUUACGCCGUUCGGAUCUGCAC: -1.08
GGCCCGACCUGAUCGACUUUGAUAAGCUGAAGGACUCCAAUGCCCGGCACAACCUGGAGCACGCAUUCAAUGUGGCUGAGCGCCAGCUGG: -0.187
CAAGUCCUGUGCUACACAUCGUAUGUACCGAAUCGGGGUUGGGGUUGGGUUGGGGAAAGUAUUAUGUUACGCCGUUCGGAUCUGCACUUC: 1.33

For quick reference, copied from above (sample 3):
TCATTTTTTTCTAACTAACTGTGCTAG: 1.32 z-score
TCATCACTTTCTTTAACACTGTGCTAG: 1.64 z-score
GACGGTATCGGACTCGGGACGTGCTAG: 2.8 z-score
GACGGACTGGGTACCGGGACGTGCTAG: -0.535 z-score
GACGAACTGAGTATGGAGACGTGCTAG: -0.0975 z-score
TTAAGACTGCTTTTCCTTTAGTGCTAG: 0.916 z-score
TTCAGTCCCCTCTTCTGGATGTGCTAG: 0.921 z-score
GGCGGTTTCGGTCTCGGGACGTGCTAG: 8.48 z-score
TACGGTCTCCTTATCCTGACGTGCTAG: 2.8 z-score
GACGGTATCGGGATTCGGGACGTGCTA: 1.81 z-score
